Measurements pooled from the literature.
Numbered parts are unrelated; each lists some results of a single study.
Sequence of UniProt Q14680 (whole entry, looked up): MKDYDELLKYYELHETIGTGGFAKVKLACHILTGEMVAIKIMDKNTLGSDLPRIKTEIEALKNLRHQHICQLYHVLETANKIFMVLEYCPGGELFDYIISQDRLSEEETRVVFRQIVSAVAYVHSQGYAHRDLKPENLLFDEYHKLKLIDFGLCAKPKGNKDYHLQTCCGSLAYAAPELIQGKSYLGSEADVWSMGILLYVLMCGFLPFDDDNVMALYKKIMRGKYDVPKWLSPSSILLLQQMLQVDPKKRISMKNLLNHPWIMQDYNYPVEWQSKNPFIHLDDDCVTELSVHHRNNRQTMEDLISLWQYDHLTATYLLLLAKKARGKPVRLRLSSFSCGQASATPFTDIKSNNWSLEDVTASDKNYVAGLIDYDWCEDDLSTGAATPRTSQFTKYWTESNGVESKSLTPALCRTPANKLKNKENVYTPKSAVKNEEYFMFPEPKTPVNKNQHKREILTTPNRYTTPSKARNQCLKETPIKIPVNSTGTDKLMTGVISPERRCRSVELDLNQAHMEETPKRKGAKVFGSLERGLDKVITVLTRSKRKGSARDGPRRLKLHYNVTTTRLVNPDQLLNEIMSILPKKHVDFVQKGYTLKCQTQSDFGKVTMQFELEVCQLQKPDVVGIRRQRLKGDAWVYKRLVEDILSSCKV
Sequence of UniProt Q52WX2 (whole entry, looked up): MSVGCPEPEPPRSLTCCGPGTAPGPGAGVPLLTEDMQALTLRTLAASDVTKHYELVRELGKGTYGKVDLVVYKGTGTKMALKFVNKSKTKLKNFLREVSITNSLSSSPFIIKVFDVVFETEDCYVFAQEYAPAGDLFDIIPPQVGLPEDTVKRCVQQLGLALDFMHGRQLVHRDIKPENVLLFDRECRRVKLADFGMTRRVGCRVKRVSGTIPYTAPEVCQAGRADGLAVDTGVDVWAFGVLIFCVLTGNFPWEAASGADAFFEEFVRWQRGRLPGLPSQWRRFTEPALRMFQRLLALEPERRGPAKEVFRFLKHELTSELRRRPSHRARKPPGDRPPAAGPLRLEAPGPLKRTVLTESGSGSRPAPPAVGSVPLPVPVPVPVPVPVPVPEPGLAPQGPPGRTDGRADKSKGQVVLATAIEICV
Sequence of UniProt P42336 (whole entry, unmodified, looked up): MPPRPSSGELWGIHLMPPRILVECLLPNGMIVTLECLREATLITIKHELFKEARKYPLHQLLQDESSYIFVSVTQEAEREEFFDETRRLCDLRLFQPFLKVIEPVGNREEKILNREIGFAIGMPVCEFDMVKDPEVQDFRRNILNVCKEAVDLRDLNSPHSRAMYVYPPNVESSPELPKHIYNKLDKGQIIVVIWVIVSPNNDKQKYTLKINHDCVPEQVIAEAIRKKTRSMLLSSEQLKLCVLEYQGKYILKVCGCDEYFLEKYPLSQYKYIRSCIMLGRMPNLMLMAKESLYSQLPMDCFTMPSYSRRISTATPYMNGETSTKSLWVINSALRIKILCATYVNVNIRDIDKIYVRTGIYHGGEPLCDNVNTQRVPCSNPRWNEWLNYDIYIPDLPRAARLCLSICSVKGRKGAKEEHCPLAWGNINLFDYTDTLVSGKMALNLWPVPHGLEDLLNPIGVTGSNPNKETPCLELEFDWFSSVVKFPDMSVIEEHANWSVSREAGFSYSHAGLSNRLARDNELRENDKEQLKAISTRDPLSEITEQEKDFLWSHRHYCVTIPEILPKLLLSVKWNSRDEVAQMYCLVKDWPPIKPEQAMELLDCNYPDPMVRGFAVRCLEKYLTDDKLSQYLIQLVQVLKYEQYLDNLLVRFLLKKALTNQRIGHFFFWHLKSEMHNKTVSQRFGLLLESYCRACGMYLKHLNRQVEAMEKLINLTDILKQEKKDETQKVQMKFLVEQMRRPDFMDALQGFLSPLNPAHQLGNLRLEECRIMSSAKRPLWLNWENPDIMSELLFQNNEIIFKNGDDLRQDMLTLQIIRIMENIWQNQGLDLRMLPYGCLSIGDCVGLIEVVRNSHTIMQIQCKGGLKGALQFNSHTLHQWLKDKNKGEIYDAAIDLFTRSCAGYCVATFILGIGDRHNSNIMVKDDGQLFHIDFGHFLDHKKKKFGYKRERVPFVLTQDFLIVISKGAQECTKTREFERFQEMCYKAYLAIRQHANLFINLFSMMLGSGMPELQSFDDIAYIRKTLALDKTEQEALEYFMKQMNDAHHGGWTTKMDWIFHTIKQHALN
Sequence of UniProt Q15831 (whole entry, looked up): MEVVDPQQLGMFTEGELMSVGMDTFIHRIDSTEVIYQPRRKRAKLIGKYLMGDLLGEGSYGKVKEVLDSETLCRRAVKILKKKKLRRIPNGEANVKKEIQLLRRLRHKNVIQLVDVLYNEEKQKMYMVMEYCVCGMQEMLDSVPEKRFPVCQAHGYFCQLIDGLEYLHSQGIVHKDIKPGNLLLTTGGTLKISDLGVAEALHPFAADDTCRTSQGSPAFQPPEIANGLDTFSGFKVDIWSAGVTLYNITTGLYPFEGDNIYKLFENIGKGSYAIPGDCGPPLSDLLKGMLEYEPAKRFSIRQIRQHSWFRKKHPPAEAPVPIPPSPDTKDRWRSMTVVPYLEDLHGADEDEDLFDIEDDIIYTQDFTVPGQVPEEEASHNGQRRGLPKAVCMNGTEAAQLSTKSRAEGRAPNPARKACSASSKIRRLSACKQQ

Block 1
Target: Mitogen-activated protein kinase kinase kinase 8 (MAP3K8, Homo sapiens, UniProt P41279)
Sequence of UniProt P41279 (whole entry, looked up): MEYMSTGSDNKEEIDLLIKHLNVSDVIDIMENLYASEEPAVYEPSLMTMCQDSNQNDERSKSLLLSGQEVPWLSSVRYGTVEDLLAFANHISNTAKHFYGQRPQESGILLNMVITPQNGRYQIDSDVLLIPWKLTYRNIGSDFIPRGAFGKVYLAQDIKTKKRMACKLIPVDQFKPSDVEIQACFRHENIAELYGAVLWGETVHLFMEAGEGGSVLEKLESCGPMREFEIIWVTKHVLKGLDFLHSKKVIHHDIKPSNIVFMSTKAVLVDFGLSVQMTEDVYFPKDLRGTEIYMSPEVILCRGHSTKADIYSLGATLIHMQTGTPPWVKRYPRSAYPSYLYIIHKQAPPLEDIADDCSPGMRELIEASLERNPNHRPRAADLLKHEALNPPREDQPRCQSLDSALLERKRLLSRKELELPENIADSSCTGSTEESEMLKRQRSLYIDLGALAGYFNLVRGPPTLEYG
Read-out: enzyme activity
Mode: inhibitor
Concentration: 0.5 µM
Relative to: control
SMILES	remaining activity
CC(C)n1cnc2c(Nc3cccc(Cl)c3)nc(NCCO)nc21	92.2%
O=C1NC(=O)c2c1c1c3ccccc3[nH]c1n1cncc21	100%
COc1cccc(-c2cc(=O)c3ccccc3o2)c1N	85.7%
CCN(CC)CCCCN1c2ccccc2Oc2ccc(Cl)cc21	94.7%
O=C(c1ccccc1)c1ccc(N2CCOCC2)cc1O	99.6%
Cc1ccc(S(=O)(=O)/C=C/C#N)cc1	96.2%
Nc1nc(Nc2ccc(S(N)(=O)=O)cc2)nn1C(=S)Nc1c(F)cccc1F	127%
COc1cc2c(Nc3ccc(Br)cc3F)ncnc2cc1OCC1CCN(C)CC1	97.3%
O=Nc1c(-c2c(O)[nH]c3ccccc23)[nH]c2ccccc12	106%
CNc1cc2c(Nc3cccc(Br)c3)ncnc2cn1	90.2%
CN(C)S(=O)(=O)c1ccc2c(c1)/C(=C/c1cc3c([nH]1)CCCC3)C(=O)N2	94.6%
c1ccc(-c2n[nH]c3c2oc2ccccc23)cc1	105%
O=C1Nc2ccc(Br)cc2/C1=C/c1cc2c([nH]1)CCCC2	105%
CC(C)(C)c1nc2c3cc[nH]c(=O)c3c3cc(F)ccc3c2[nH]1	128%
O=C1NC(=O)/C(=C/c2ccc3c(c2)OC(F)(F)O3)S1	93%
NC(=O)c1ccc(-c2nc(-c3ccc4c(c3)OCCO4)c(-c3ccccn3)[nH]2)cc1	103%
O=C1c2ccccc2-c2nc3nnnn3nc21	75.9%
COc1ccc(COc2ccc(Cc3cnc(N)nc3N)cc2OC)cc1	98.4%
Clc1ccc(Nc2nnc(Cc3ccncc3)c3ccccc23)cc1	98.2%
O=C1Nc2ccccc2/C1=C\c1c(Cl)[nH]c2ccccc12	94.3%
O=C(O)/C=C/c1cc(Br)c(Br)c(Br)c1Br	83%
COc1ccc2c(c1)c(C1=C(c3c[nH]c4ccccc34)C(=O)NC1=O)cn2CCCN(C)C	93.8%
Oc1cccc(-c2nc(N3CCOCC3)c3oc4ncccc4c3n2)c1	99.2%
O=Nc1c(-c2c(O)[nH]c3cc(Br)ccc23)[nH]c2ccccc12	101%
O=c1cc(N2CCOCC2)oc2c(-c3ccccc3)cccc12	98.2%

Block 2
Species: human
Matrix: microsomes or S9
Concentration: 2 µM
Time: 0.5 h
Structure (SMILES)	remaining compound [%]
CC(=O)Nc1ccc(Cl)c(C(=O)N(C)C(CO)C(C)(C)C)c1 (centres unmarked)	81.4
COc1ncc(-c2ccc(-c3ccn[nH]3)cc2)c(OC)n1	90.8
N#Cc1ccc2[nH]cc(S(=O)(=O)c3cc(Cl)cc(Cl)c3)c(=O)c2c1	49
COC(=O)CC(c1cnn(C(C)C)c1)c1c(O)cc(C)n(CCc2c[nH]cn2)c1=O (centres unmarked)	96.4
CCOC(=O)c1c(C)c(C(=O)NCCCN(C)C)c(C)n1CC	> 99
Cc1nc(C2=C(N)N(C3CS(=O)(=O)CC3O)CC2=O)sc1C (centres unmarked)	> 99
COc1cc(=O)[nH]cc1C(=O)N1CCOCC1c1ccc(F)cc1 (centres unmarked)	29.6

Block 3
Cell line: HaCaT
Concentration: 100 µM
Time: 36 h
SMILES	viability [%]
CC(C)C[C@H](NC(=O)CNC(=O)c1cc(Cl)ccc1Cl)B(O)O	6.38
N=C(N)N	88.1
COc1ccc(CN2CCN(C(c3ccc(F)cc3)c3ccc(F)cc3)CC2)c(OC)c1OC	14.1
O=c1cc(-c2ccc(O)cc2)oc2cc(O)cc(O)c12	14.3
COc1ncnc(NS(=O)(=O)c2ccc(N)cc2)c1OC	89
O=C(CCNNC(=O)c1ccncc1)NCc1ccccc1	99.6
Nc1c(CC(=O)O)cccc1C(=O)c1ccc(Br)cc1	100
Cc1oncc1C(=O)Nc1ccc(C(F)(F)F)cc1	48.2
CCOc1nc2cccc(C(=O)OC(C)OC(=O)OC3CCCCC3)c2n1Cc1ccc(-c2ccccc2-c2nnn[nH]2)cc1 (centres unmarked)	5.21

Block 4
Method: PRP chromatography
Setting: linear fit, 1 mL
Structure (SMILES)	logD 1,9-decadiene/water [log units]
CC(C)C[C@@H]1NC(=O)[C@H](Cc2cscn2)NC(=O)[C@H](CC(C)C)NC(=O)[C@@H](CCC(=O)N2CCCC2)NC(=O)[C@H](CC(C)C)NC(=O)[C@@H](CC(C)C)NC(=O)[C@H](CC(C)C)NC1=O	-0.0339
CC(C)C[C@@H]1NC(=O)[C@H](Cc2cscn2)NC(=O)[C@H](Cc2cscn2)NC(=O)[C@H](C)NC(=O)[C@@H](CCC(=O)N2CCCC2)NC(=O)[C@H](CC(C)C)NC(=O)[C@@H](CC(C)C)NC1=O	-2.14
CC(C)C[C@@H]1NC(=O)[C@@H](C)NC(=O)[C@H](Cc2cscn2)NC(=O)[C@@H](CC(C)C)NC(=O)[C@H](C(C)C)NC(=O)[C@H](CC(C)C)NC(=O)[C@@H](CC(C)C)NC1=O	0.604
CC(C)C[C@@H]1NC(=O)[C@H](C(C)C)NC(=O)[C@H](CCC(=O)N2CCCC2)NC(=O)[C@H](CCC(=O)N2CCCC2)NC(=O)[C@@H](Cc2cscn2)NC(=O)[C@H](CC(C)C)NC(=O)[C@@H](CC(C)C)NC1=O	-4.39
CC(C)C[C@@H]1NC(=O)[C@H](CC(C)C)NC(=O)[C@@H](C(C)C)NC(=O)[C@@H](C)NC(=O)[C@H](C)NC(=O)[C@@H](CC(C)C)NC(=O)[C@H](C)NC1=O	-2.32
CC(C)C[C@@H]1NC(=O)[C@H](Cc2cscn2)NC(=O)[C@H](C)NC(=O)[C@H](C)NC(=O)[C@@H](CCC(=O)N2CCCC2)NC(=O)[C@H](CC(C)C)NC(=O)[C@@H](CC(C)C)NC1=O	-4.38
CC(C)C[C@@H]1NC(=O)[C@@H](C)NC(=O)[C@@H](CC(C)C)NC(=O)[C@H](C)NC(=O)[C@H](C)NC(=O)[C@H](CC(C)C)NC(=O)[C@@H](CC(C)C)NC1=O	-1.67
CC(C)C[C@@H]1NC(=O)[C@H](CC(C)C)NC(=O)[C@H](CC(C)C)NC(=O)[C@H](Cc2cscn2)NC(=O)[C@@H](CCC(=O)N2CCCC2)NC(=O)[C@H](Cc2cscn2)NC(=O)[C@H](C)NC1=O	-1.33

Block 5
Compound: Cc1c(NC(=O)c2cc(C(N)=O)nc3cc(F)ccc23)c(C(F)(F)F)nn1Cc1ccc(C(C)(C)C)cc1
Read-out: cell-free assay
Method: competition with immobilised ligand
Concentration: 1 µM
target	remaining binding [%]
Receptor-type tyrosine-protein kinase FLT3, autoinhibited (FLT3, Homo sapiens, UniProt P36888)	100
MELK (Homo sapiens, UniProt Q14680)	100
PIK3CA (Homo sapiens, UniProt P42336, Q546K)	32
EGFR (Homo sapiens, UniProt P00533, del747-750/T751S)	77
SBK1 (Homo sapiens, UniProt Q52WX2)	100
STK11 (Homo sapiens, UniProt Q15831)	100
FLT3 (Homo sapiens, UniProt P36888, D835H)	79

For quick reference, copied from above (block 5):
target	remaining binding [%]
FLT3 (Homo sapiens, UniProt P36888, D835H)	79
SBK1 (Homo sapiens, UniProt Q52WX2)	100
PIK3CA (Homo sapiens, UniProt P42336, Q546K)	32
STK11 (Homo sapiens, UniProt Q15831)	100
MELK (Homo sapiens, UniProt Q14680)	100
